Measured values of several laboratories.
Each line is one published result; not all experiments were run side by side.
Cell line: MCF7

SMILES | effect on | method | time | IC50
CC1OC(OC2CCC3(C)C(CCC4C3CCC3(C)C(C5=CC(=O)OC5)CCC43O)C2)C(O)C(O)C1OC1OC(CO)C(O)C(O)C1O (centres unmarked) | cell growth or viability | MTT | 48 h | 0.12 µM
CC[C@H](C)[C@H](NC(=O)[C@H](CCCCN)NC(=O)[C@@H](NC(=O)[C@H](CCC(N)=O)NC(=O)[C@@H](N)CCCNC(=N)N)[C@@H](C)CC)C(=O)N[C@@H](Cc1c[nH]c2ccccc12)C(=O)N[C@@H](Cc1ccccc1)C(=O)N[C@@H](CCC(N)=O)C(=O)N[C@@H](CC(N)=O)C(=O)N[C@@H](CCCNC(=N)N)C(=O)N[C@@H](CCCNC(=N)N)C(=O)N[C@@H](CCSC)C(=O)N[C@@H](CCCCN)C(=O)N[C@@H](Cc1c[nH]c2ccccc12)C(=O)N[C@@H](CCCCN)C(=O)N[C@@H](CCCCN)C(N)=O | cytotoxicity |  |  | 33.5 µM
C[C@]12CC[C@@H]3c4ccc(OS(=O)(=O)F)cc4CC[C@H]3[C@@H]1CCC2=O | cell growth |  | 72 h | 28.7 µM
O=C1N[C@H]2[C@H](CS[C@H]2CCCCC(=O)OCc2ccnc(-c3cc(COC(=O)CCCC[C@@H]4SC[C@@H]5NC(=O)N[C@@H]54)ccn3)c2)N1.O=S(=O)([O-])C(F)(F)F.[Ru+2].c1cc[cH-]c1.c1ccc(P(c2ccccc2)c2ccccc2)cc1 | cell growth or viability | MTT | 24 h | 31.5 µM
CC(=O)c1nn(-c2ccc([N+](=O)[O-])cc2)c2nc3nc(-c4ccccc4)cc(-c4ccc5ccccc5n4)c3c(=O)n12 | cell growth or viability | MTT | 48 h | 12.3 µM
C[C@@H](N)[C@H](O)CCCCCCCC(=O)CCCCCCCCCCCCCC[C@@H](O[C@@H]1O[C@H](CO)[C@@H](O)[C@H](O)[C@H]1O)[C@@H](N)CO | cell growth or viability | resazurin | 96 h | 5.77 µM
Cc1cc(C)n(C(C(=O)OC(C)C)n2nc(C)cc2C)n1.F[P-](F)(F)(F)(F)F.[Cu+].c1ccc(P(c2ccccc2)c2ccccc2)cc1 | cell growth or viability | MTT | 72 h | 7.2 µM
[N-]=[N+]=NCCCN1C(=O)c2cccc3cccc(c23)C1=O | cell growth or viability | MTT | 24 h | > 100 µM
CC(C)C[C@H](NC(=O)[C@H](C)NC(=O)[C@H](CCCCN)NC(=O)[C@H](C)NC(=O)[C@H](C)NC(=O)[C@@H]1CSCc2ccccc2CSC[C@H](NC(=O)[C@H](CCCCN)NC(=O)[C@H](Cc2ccccc2)NC(=O)CN)C(=O)N[C@@H](CC(C)C)C(=O)N[C@@H](CC(C)C)C(=O)N[C@@H](CCCCN)C(=O)N1)C(=O)N[C@H](C(=O)N[C@@H](CCCCN)C(=O)N[C@H](C(=O)N[C@H](C(=O)N[C@@H](CC(C)C)C(=O)N[C@@H](Cc1ccccc1)C(N)=O)C(C)C)[C@@H](C)O)C(C)C | cell growth or viability | CCK-8 |  | 12 µM
Cc1nn(-c2ccccc2)c(O)c1C(c1ccc(N(C)C)cc1)c1c(C)nn(-c2ccccc2)c1O | cell growth or viability | MTT | 48 h | 32.6 µM
Cc1cc(C)c(-n2ccn(-c3c(C)cc(C)cc3C)c2=[Se])c(C)c1.[Cl][Au] | cell growth or viability | MTT | 72 h | 0.6 µM
